Measurements of several laboratories.
Numbered parts are unrelated; each lists some results of a single study. Substitutions count along the parent as printed.

Series 1 — method: protein-binding microarray; form: double-stranded DNA, one strand shown; sample: in vitro; concentration: not given; reading: higher = stronger binding
Target: Myc proto-oncogene protein, bHLH-zipper, MAX partner unstated (MYC, Homo sapiens, UniProt P01106, residues 368-449)
Sequence of UniProt P01106 (368-449, looked up): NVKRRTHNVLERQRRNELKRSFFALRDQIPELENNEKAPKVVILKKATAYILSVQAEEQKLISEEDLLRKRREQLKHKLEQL
Setting: k-mer, scored over probes, only values ≥0.25
For `ACCATGCT`, the E-score was 0.43.
`CACGTTAG` has an E-score of 0.326.
With `CATGCGTC` the E-score was 0.431.
`AGGTGGGG` has an E-score of 0.26.
`AGGTACAC` gave an E-score of 0.264.
`GGCGGGGA` has an E-score of 0.348.
With `CAACGTGA` the E-score was 0.348.
`GCATGCTA` has an E-score of 0.396.
`GTGGCTCA` has an E-score of 0.287.
The E-score of `ATGGGGTG` is reported as 0.312.
`CACACCTC` has an E-score of 0.325.
With `AGCCCACG` the E-score was 0.308.
The E-score of `CGCGTGTA` is reported as 0.455.
With `GCGCTGCA` the E-score was 0.268.
For `CGCGAGCA`, the E-score was 0.271.

Series 2 — method: RNAcompete; form: RNA; sample: in vitro; concentration: 20 nM; setting: 7-mer, probes averaged, single round; baseline: mean of 7-mers; reading: higher = stronger binding
Target: PABPC1L2, full length, GST fusion (mouse, UniProt A0ABA7IW68)
Target sequence (chain): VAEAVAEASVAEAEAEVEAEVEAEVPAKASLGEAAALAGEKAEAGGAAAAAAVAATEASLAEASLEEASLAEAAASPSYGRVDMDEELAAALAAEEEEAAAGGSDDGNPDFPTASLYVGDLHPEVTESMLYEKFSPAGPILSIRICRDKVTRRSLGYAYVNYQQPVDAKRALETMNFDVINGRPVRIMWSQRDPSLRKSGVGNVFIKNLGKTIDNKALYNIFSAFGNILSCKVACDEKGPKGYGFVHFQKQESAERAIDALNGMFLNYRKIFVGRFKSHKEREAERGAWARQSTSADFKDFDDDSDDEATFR
`GGCUUGG` gave a 7-mer Z-score of 0.0533.
`GAGUUUG` has a 7-mer Z-score of -0.371.
For `GGAUUCG`, the 7-mer Z-score was -0.195.
The 7-mer Z-score of `AGCAGAG` is reported as -0.0246.
With `UGGUAUG` the 7-mer Z-score was -0.0591.
The 7-mer Z-score of `GAGGCAC` is reported as 0.14.
The 7-mer Z-score of `AAUCGCA` is reported as 0.273.
The 7-mer Z-score of `UGUGCAA` is reported as 0.0478.
With `CUAGCGC` the 7-mer Z-score was -0.242.
`AUAGUUA` has a 7-mer Z-score of -0.195.
For `AGCGGUA`, the 7-mer Z-score was 0.1.
`CGUUGAG` has a 7-mer Z-score of -0.186.
With `GCGAUGA` the 7-mer Z-score was -0.0609.
With `CGCGCUA` the 7-mer Z-score was -0.291.
With `UGCCGGG` the 7-mer Z-score was -0.0772.
The 7-mer Z-score of `UAAUUUA` is reported as 0.119.
For `AUGUCGU`, the 7-mer Z-score was -0.291.
`CUCCUGC` gave a 7-mer Z-score of -0.354.
`CCAGCGU` gave a 7-mer Z-score of -0.275.
For `GAAAGCU`, the 7-mer Z-score was 0.0225.
The 7-mer Z-score of `AGGUAAA` is reported as 0.762.
`ACAGCGG` has a 7-mer Z-score of 0.149.
`CCAAACC` has a 7-mer Z-score of -0.142.
The 7-mer Z-score of `GGGAUGC` is reported as 0.204.
`CGUACAU` has a 7-mer Z-score of -0.115.

Series 3 — method: universal PBM; form: double-stranded DNA, one strand shown; sample: in vitro; concentration: not given; reading: higher = stronger binding
Target: Sal-like protein 4, full length isoform B (SALL4, Homo sapiens, UniProt Q9UJQ4-2, residues 1-616)
Setting: 8-mer, flanks averaged, mean of replicates
Construct (chain): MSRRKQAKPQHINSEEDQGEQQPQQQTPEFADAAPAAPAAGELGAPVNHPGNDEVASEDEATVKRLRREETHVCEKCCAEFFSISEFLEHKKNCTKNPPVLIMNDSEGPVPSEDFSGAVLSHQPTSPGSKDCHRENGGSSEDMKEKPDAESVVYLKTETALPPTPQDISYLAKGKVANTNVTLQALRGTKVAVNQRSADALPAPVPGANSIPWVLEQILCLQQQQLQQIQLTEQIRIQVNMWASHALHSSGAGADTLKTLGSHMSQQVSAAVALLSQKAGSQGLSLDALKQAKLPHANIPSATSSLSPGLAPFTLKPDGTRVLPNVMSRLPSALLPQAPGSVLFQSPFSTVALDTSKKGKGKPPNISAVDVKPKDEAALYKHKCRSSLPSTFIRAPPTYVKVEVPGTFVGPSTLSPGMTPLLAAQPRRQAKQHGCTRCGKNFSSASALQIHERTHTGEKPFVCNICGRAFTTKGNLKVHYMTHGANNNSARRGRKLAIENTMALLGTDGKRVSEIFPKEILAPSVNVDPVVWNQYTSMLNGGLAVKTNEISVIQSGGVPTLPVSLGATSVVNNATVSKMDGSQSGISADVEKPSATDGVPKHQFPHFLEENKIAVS
For `GATTTTGA`, the E-score was 0.183.
With `GCCCGAGA` the E-score was -0.222.
`CAGGGTAA` gave an E-score of 0.0519.
`CTGTCTCA` gave an E-score of 0.0786.
`AAGTGTCT` gave an E-score of 0.0935.
For `CCATTACG`, the E-score was -0.0981.
`GCGATTCC` has an E-score of -0.189.
`ATTTGCTA` gave an E-score of 0.257.
With `CAGGGGAC` the E-score was -0.249.
`AACTTAGG` gave an E-score of -0.0295.
With `CATCAGAC` the E-score was -0.0259.
For `CAAGTATG`, the E-score was 0.226.
The E-score of `CTACCTCA` is reported as -0.221.
The E-score of `ATTATCCG` is reported as 0.19.
`CGAATCCC` gave an E-score of -0.232.
`CATTGTAC` has an E-score of 0.147.
`TGAAGGCA` gave an E-score of 0.0142.
For `CGAAGTCA`, the E-score was 0.0118.
With `CAGTTAAG` the E-score was 0.0221.
With `GCGCTCCC` the E-score was -0.256.
`GTGTGCGA` has an E-score of -0.159.
With `CTTGAAAC` the E-score was 0.0566.
With `ACAACGTG` the E-score was 0.0072.
With `AGGACCCT` the E-score was -0.202.
For `CGCCATAC`, the E-score was 0.0605.

Series 4 — target: CCNE1, cyclin fold, Cln2 fusion (human); method: yeast growth competition, sequencing; sample: yeast; setting: weak parent motif; baseline: not given; reading: higher = stronger binding
Starting sequence: WEE1 docking peptide (human); HKTFRKLRLFDTP
`CKTFRKLRLFDTP [H1C]`: “normalised enrichment score” 0.501.
`HTTFRKLRLFDTP [K2T]` — result for “normalised enrichment score”: 0.902.
`HKTFRKLRLFDCP [T12C]`: “normalised enrichment score” 0.616.
`HKTFRKLQLFDTP [R8Q]`: “normalised enrichment score” 1.13.
`HKTFQKLRLFDTP [R5Q]`: “normalised enrichment score” 0.659.
`HKTFRKLRFFDTP [L9F]`: “normalised enrichment score” 0.603.
Under “normalised enrichment score”, `HKTFRKLRLFDRP [T12R]` is recorded as 0.739.
Under “normalised enrichment score”, `HKTFRGLRLFDTP [K6G]` is recorded as 1.22.
`HKTCRKLRLFDTP [F4C]` — result for “normalised enrichment score”: 0.206.
`HKTFMKLRLFDTP [R5M]`: “normalised enrichment score” 0.737.
For `KKTFRKLRLFDTP [H1K]`, “normalised enrichment score” read 0.208.
`HETFRKLRLFDTP [K2E]` — result for “normalised enrichment score”: 0.674.
`HKTHRKLRLFDTP [F4H]`: “normalised enrichment score” 1.04.
Under “normalised enrichment score”, `HKTFRKRRLFDTP [L7R]` is recorded as -0.644.
`YKTFRKLRLFDTP [H1Y]` — result for “normalised enrichment score”: 0.347.
`HKTNRKLRLFDTP [F4N]`: “normalised enrichment score” 0.452.
`HKTFRKLRGFDTP [L9G]` — result for “normalised enrichment score”: 0.8.
`HKTFRKQRLFDTP [L7Q]` — result for “normalised enrichment score”: 0.727.
Under “normalised enrichment score”, `HKTFRKLRLFDLP [T12L]` is recorded as 0.212.
Under “normalised enrichment score”, `HKTFIKLRLFDTP [R5I]` is recorded as 1.24.

Series 5 — method: protein-binding microarray; form: double-stranded DNA, one strand shown; sample: in vitro; concentration: 250 nM; setting: 60-bp whole probe; together with: salmon DNA 0.4 mg/ml; baseline: random background probes; reading: higher = stronger binding; constant ends, left off below: GCCTAGCAC … GTCTTGATTCGCTTGACGCTGCTG
Target: Interferon regulatory factor 7, full length, phosphomimetic (IRF7, Homo sapiens, UniProt Q92985, residues 1-503, S101K/S471D/S472D/S475D/S476D/S477D/S483D/S484D/S487D)
Sequence of UniProt Q92985 (whole entry, unmodified, looked up): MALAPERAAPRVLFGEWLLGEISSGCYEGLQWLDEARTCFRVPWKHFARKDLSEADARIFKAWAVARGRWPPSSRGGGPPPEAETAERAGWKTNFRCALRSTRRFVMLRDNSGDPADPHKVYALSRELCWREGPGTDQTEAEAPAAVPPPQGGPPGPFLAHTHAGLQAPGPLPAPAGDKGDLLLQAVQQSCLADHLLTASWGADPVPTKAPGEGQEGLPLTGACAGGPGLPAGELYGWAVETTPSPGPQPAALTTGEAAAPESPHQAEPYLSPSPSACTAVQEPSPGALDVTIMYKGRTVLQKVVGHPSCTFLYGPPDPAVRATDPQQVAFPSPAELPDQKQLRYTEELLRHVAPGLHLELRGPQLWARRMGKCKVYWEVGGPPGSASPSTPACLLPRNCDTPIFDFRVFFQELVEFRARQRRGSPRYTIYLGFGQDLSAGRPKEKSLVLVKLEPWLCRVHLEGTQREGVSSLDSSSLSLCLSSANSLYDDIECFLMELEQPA
`CAGGCAGGAGAAGTGAATGAGTGCTAG` gave a log fluorescence of -0.885 z-score.
`GACGGACTGGCTTTCGGGACGTGCTAG` has a log fluorescence of -0.539 z-score.
With `TCAACACTAATTTTCATACTGTGCTAG` the log fluorescence was 0.285 z-score.
For `TTAGGTATCGGGTCTGGGTTAGTGCTA`, the log fluorescence was 0.88 z-score.
With `TCATCTATCTTAAATAGGACTGTGCTA` the log fluorescence was 0.549 z-score.
For `TCTTTTCTGTTGTCTGTGTTTGTGCTA`, the log fluorescence was 2.85 z-score.
The log fluorescence of `TTTTCATTATTGTGTCAACTTGTGCTA` is reported as 1.56 z-score.
For `GACGATTTCAGACAGGAGACGTGCTAG`, the log fluorescence was 0.09 z-score.
The log fluorescence of `GACGGACTGATTCTCCTGACGTGCTAG` is reported as -0.165 z-score.
`TTAGAACTGAGACAGGATTAGTGCTAG` has a log fluorescence of -0.0385 z-score.
For `GTGTGTCTGATTATTTACATGTGCTAG`, the log fluorescence was -0.0794 z-score.
The log fluorescence of `TTAGGTATCGGGACTAGGTTAGTGCTA` is reported as 0.265 z-score.
`AAGTTTATACCTTAGGTTTTGTGCTAG` gave a log fluorescence of 0.254 z-score.
`TATATTCTATTCCTTTAACAGTGCTAG` gave a log fluorescence of 2.32 z-score.
For `GACGGACTTGGGACTGGGGACGTGCTA`, the log fluorescence was -0.213 z-score.
The log fluorescence of `TTAGATTCCAGGTTCGATTAGTGCTAG` is reported as 3.35 z-score.
`TTAGGCTTCGGTCTCGGTTAGTGCTAG` gave a log fluorescence of 1.39 z-score.
For `TTAGGTATCGACTATCAGTTAGTGCTA`, the log fluorescence was 0.34 z-score.
For `GACGGTCTCCTTCTACTGACGTGCTAG`, the log fluorescence was -0.166 z-score.

Further values, each from its own experiment
Under cross-linked residues, `SNRNP200 (Homo sapiens, UniProt O75643)` is recorded as “K695 to K395” (PRPF6 (Homo sapiens, UniProt O94906); cross-linking MS; cell fractions; together with: DSSO).
For `PhoQ, residues 284 288 289 292 302 303 GASLAW`, the fold induction was 5.19 (PhoP, residues 12 14 15 18 19 LHATL (Escherichia coli, UniProt P23836); Sort-seq, refers to: YFP reporter; E. coli; PhoQ-PhoP variant library, together with: 10 µM Mg2+; baseline: high Mg2+ state, higher = stronger signaling).
Under cross-linked residues, `SURF6 (Homo sapiens, UniProt O75683)` is recorded as “E316 to K1641” (SPTB (Homo sapiens, UniProt P11277); cross-linking MS; cell fractions; together with: DMTMM).
Under cross-linked residues, `UPF1 (Homo sapiens, UniProt Q92900)` is recorded as “K929 to K863” (UPF2 (Homo sapiens, UniProt Q9HAU5); cross-linking MS; cell fractions; together with: DSSO).
`YWHAQ (Homo sapiens, UniProt P27348)`: interaction screen “cross-linked” (YWHAZ (Homo sapiens, UniProt P63104); cross-linking MS; hits only).

For quick reference, copied from above (series 3):
For `GATTTTGA`, the E-score was 0.183.
With `GCCCGAGA` the E-score was -0.222.
`CAGGGTAA` gave an E-score of 0.0519.
`CTGTCTCA` gave an E-score of 0.0786.
`AAGTGTCT` gave an E-score of 0.0935.
For `CCATTACG`, the E-score was -0.0981.
`GCGATTCC` has an E-score of -0.189.
`ATTTGCTA` gave an E-score of 0.257.
With `CAGGGGAC` the E-score was -0.249.
`AACTTAGG` gave an E-score of -0.0295.
With `CATCAGAC` the E-score was -0.0259.
For `CAAGTATG`, the E-score was 0.226.
